# Experimental data gathered from unrelated publications.
# Numbered parts are unrelated; each lists some results of a single study. Several values in a cell are separate wells, animals, samples, runs or records.
# Sequence of UniProt P42336 (whole entry, unmodified, looked up): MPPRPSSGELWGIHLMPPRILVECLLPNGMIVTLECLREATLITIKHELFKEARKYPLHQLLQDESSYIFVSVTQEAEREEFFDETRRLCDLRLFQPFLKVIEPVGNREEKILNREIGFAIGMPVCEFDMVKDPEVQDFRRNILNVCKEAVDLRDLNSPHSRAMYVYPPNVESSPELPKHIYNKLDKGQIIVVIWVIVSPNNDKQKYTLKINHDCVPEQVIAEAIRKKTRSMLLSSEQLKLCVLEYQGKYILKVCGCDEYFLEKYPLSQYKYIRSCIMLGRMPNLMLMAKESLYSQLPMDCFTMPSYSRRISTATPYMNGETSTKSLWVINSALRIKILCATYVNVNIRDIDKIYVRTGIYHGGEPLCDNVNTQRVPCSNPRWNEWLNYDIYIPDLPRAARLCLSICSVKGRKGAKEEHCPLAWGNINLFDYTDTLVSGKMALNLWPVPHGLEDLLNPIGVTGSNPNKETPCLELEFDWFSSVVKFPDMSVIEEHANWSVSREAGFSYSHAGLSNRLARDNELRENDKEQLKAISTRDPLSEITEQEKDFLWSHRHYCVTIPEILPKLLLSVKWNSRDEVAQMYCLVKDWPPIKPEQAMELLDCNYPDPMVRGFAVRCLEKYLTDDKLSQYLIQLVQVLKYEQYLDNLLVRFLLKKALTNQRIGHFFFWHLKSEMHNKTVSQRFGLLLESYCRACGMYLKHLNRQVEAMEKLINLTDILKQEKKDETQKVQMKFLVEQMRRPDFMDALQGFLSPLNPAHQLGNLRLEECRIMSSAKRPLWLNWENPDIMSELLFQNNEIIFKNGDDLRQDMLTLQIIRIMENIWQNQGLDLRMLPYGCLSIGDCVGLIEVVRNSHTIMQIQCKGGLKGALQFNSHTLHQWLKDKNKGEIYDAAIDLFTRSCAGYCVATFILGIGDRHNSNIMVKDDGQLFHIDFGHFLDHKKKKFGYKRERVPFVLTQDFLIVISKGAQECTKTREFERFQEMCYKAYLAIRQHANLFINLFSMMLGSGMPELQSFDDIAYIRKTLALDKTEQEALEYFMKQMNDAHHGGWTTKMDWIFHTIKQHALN
# Sequence of UniProt P24723 (whole entry, looked up): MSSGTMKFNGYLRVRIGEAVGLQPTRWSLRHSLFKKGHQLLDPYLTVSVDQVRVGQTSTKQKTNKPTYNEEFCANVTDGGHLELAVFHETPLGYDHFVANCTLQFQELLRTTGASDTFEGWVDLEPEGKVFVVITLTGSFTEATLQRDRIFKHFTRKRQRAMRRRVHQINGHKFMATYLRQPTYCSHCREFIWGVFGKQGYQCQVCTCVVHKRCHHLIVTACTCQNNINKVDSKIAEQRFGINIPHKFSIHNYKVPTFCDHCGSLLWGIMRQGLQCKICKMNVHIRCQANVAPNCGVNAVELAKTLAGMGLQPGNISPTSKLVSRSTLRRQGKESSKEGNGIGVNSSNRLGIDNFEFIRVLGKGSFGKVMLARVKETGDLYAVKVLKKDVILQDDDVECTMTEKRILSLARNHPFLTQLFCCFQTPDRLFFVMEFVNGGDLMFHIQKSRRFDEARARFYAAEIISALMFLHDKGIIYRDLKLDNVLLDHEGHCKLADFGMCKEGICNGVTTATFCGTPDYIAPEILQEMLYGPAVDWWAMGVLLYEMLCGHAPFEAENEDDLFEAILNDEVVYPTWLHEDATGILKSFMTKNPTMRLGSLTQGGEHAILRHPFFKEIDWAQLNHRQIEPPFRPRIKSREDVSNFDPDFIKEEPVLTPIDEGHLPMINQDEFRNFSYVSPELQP
# Sequence of UniProt P30530 (whole entry, looked up): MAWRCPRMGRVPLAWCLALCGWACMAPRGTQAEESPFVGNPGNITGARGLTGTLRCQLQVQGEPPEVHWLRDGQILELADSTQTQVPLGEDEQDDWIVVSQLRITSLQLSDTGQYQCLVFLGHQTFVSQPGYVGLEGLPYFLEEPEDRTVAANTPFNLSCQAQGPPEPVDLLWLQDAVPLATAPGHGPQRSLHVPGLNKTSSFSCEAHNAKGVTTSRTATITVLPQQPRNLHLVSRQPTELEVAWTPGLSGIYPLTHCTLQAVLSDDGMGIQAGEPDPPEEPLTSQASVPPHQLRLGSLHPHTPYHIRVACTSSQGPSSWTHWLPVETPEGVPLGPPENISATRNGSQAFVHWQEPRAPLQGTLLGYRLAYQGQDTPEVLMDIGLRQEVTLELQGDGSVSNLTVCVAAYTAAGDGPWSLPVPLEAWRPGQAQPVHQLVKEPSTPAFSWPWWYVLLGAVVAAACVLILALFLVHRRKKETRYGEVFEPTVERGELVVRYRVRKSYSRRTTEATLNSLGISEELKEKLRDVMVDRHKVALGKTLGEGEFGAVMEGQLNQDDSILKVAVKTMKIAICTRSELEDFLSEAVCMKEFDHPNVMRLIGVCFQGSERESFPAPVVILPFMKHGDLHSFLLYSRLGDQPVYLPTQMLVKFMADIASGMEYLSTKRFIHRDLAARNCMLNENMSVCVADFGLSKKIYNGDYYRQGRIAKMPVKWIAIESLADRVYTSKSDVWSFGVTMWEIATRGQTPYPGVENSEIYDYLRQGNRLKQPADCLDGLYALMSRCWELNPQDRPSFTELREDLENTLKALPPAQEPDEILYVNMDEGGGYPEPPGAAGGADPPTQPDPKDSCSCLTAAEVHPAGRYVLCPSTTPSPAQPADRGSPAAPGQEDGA
# Sequence of UniProt Q15418 (whole entry, looked up): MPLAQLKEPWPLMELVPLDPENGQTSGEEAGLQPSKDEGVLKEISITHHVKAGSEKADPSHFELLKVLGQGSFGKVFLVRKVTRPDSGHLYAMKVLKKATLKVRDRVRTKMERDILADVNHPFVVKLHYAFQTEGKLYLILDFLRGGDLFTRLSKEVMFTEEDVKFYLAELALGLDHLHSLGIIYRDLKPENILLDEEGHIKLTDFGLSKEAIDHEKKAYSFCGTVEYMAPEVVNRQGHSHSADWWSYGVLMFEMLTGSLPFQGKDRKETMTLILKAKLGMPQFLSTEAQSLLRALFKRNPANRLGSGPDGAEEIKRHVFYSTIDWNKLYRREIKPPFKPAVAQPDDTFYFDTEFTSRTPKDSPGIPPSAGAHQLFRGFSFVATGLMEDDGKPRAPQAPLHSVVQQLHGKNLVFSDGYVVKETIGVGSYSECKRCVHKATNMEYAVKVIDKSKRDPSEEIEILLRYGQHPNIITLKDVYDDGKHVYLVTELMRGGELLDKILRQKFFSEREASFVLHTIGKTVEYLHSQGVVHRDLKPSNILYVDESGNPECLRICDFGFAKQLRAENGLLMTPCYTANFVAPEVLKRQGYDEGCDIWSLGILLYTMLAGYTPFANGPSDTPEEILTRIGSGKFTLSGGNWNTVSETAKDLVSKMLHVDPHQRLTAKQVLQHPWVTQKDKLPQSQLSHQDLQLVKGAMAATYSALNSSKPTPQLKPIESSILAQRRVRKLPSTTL
# Sequence of UniProt Q08881 (whole entry, looked up): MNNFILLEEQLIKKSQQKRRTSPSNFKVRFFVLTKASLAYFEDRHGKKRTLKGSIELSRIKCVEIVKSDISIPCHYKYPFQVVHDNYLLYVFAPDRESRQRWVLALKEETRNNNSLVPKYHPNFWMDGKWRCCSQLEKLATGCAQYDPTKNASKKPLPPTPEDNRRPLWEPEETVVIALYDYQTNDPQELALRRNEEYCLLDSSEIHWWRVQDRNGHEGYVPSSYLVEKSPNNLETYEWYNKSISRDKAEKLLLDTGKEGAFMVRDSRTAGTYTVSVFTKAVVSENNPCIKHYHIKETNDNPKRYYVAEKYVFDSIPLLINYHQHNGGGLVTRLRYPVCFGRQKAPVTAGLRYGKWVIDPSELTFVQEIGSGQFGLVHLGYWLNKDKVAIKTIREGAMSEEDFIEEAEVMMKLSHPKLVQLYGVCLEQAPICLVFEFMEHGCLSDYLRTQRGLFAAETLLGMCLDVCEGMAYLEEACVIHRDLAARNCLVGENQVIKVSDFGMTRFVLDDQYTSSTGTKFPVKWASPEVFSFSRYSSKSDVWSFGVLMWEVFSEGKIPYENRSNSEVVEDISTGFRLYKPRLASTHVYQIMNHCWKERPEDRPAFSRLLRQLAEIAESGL

# Block 1
# Compound: O=C1NC(c2ccccn2)Sc2ccccc21 (stereo not drawn)
# Read-out: cell-free assay
# Method: competition with immobilised ligand
# Tested at: 1 µM
target,remaining binding
"Tyrosine-protein kinase ITK/TSK (ITK, Homo sapiens, UniProt Q08881)",77%
"Tyrosine-protein kinase receptor Tie-1 (TIE1, Homo sapiens, UniProt P35590)",65%
"Dual specificity mitogen-activated protein kinase kinase 3 (MAP2K3, Homo sapiens, UniProt P46734)",81%
"Mitogen-activated protein kinase 10 (MAPK10, Homo sapiens, UniProt P53779)",100%
"Mitogen-activated protein kinase kinase kinase kinase 4 (MAP4K4, Homo sapiens, UniProt O95819)",100%
"Protein kinase C eta type (PRKCH, Homo sapiens, UniProt P24723)",100%
"Receptor tyrosine-protein kinase erbB-2 (ERBB2, Homo sapiens, UniProt P04626)",71%
"Misshapen-like kinase 1 (MINK1, Homo sapiens, UniProt Q8N4C8)",72%
"Myosin-IIIa (MYO3A, Homo sapiens, UniProt Q8NEV4)",85%
"Tyrosine-protein kinase receptor UFO (AXL, Homo sapiens, UniProt P30530)",92%
"Phosphatidylinositol 4,5-bisphosphate 3-kinase catalytic subunit alpha isoform (PIK3CA, Homo sapiens, UniProt P42336)",91%
"Phosphatidylinositol 4,5-bisphosphate 3-kinase catalytic subunit alpha isoform (PIK3CA, Homo sapiens, UniProt P42336, C420R)",100%
"Ribosomal protein S6 kinase alpha-1, N-terminal kinase domain (RPS6KA1, Homo sapiens, UniProt Q15418)",100%
"Ribosomal protein S6 kinase alpha-5, N-terminal kinase domain (RPS6KA5, Homo sapiens, UniProt O75582)",95%
"Tyrosine-protein kinase JAK2, JH1 (JAK2, Homo sapiens, UniProt O60674)",84%

# Block 2
# Host: mouse
# Matrix: microsomes or S9
# Tested at: 2 µM
# Time: 0.5 h
Structure (SMILES),remaining compound
CCn1cnnc1-c1nn(C)c2c1CN(C(=O)c1ccc(Cc3c(C)n[nH]c3C)o1)CC2,31%
Cn1c(=O)c2sc3c(c2n(CCN2CCCCC2)c1=O)CCCC3,9.3%
COc1cccc(-c2c3c(cc(OC)c2OC)C(=O)N(c2cccc(C(=O)O)c2)C3)c1,73.2%
N#Cc1cccc(COc2cccnc2Nc2nc3cc(F)ccc3[nH]2)c1,35.1%
CCOc1cc(-c2ccccc2)nn1Cc1ccc2cccnc2c1,0.723%
CCC(C)Nc1[nH]c2cc(C)cc(C)c2c(=O)c1C(C)=O (stereo not drawn),0.126%

# Block 3
# Target: Platelet-derived growth factor receptor alpha (PDGFRA, Homo sapiens, UniProt P16234)
# Sequence of UniProt P16234 (whole entry, looked up): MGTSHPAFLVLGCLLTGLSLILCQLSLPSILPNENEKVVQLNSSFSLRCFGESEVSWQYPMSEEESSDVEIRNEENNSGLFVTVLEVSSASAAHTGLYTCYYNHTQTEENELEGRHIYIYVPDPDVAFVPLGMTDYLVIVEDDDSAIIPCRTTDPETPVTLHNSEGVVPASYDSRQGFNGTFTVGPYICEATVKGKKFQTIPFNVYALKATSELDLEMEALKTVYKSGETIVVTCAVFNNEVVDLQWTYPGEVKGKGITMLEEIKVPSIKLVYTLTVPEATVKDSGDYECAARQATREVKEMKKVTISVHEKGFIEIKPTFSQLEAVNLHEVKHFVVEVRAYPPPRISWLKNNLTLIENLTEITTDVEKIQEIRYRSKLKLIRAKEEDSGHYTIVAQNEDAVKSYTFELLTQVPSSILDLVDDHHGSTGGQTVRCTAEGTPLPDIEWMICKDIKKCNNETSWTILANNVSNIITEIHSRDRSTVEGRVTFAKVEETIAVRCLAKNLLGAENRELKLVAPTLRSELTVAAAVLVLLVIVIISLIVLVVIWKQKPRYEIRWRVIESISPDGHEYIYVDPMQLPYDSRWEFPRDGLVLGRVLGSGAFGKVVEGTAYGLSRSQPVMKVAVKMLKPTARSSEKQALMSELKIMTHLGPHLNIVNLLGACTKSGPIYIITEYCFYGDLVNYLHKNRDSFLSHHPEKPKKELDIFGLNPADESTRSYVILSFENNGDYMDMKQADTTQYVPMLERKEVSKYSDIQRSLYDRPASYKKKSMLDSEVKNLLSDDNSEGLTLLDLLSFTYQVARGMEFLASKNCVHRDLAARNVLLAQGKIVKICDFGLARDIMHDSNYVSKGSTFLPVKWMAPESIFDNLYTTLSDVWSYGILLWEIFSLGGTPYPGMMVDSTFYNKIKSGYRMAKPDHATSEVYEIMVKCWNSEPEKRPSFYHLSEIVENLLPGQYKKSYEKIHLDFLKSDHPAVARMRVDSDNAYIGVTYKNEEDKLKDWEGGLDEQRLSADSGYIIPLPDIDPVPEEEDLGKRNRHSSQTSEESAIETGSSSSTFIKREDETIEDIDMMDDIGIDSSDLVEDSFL
# Read-out: enzyme activity
# Action: inhibitor
# Tested at: 0.5 µM
# Baseline: control
SMILES,remaining activity [%]
O=c1cc(N2CCOCC2)oc2c(-c3ccccc3)cccc12,94.6
O=C1Cc2c([nH]c3ccc(Br)cc23)-c2ccccc2N1,103
CCCNC(=O)Nc1ccc(Oc2ncnc3cc(OC)c(OC)cc23)cc1Cl,92.2
Oc1cccc(-c2nc(N3CCOCC3)c3oc4ncccc4c3n2)c1,99.4
CN(C)S(=O)(=O)c1ccc2c(c1)/C(=C/c1cc3c([nH]1)CCCC3)C(=O)N2,93.7
O=C1Nc2ccccc2/C1=C\c1c(Cl)[nH]c2ccccc12,88.7
c1ccc2c(-c3ccncc3)c[nH]c2c1,95
CCCCc1c(-c2ccc(OC)cc2)[nH]c2nccnc12,90.2
COc1ccc2c(c1)c(C1=C(c3c[nH]c4ccccc34)C(=O)NC1=O)cn2CCCN(C)C,85.2

# Block 4
# Compound: CC(C)(C(=O)O)[C@H](NC(=O)Cc1cccc(I)c1)c1ccc2oc(=O)[nH]c2c1
# Method: Incucyte 3D growth
# Tested at: 30 µM
# Reading: higher = more growth
cell line,setting,spheroid area
IPC-298,234 h,2.8e+07 a.u. and 4.62e+07 a.u. and 2.89e+07 a.u. and 3.8e+07 a.u. and 3.22e+07 a.u. and 3.21e+07 a.u.
A375,228 h,1.28e+08 a.u. and 1.14e+08 a.u. and 1.33e+08 a.u. and 1.31e+08 a.u. and 1.52e+08 a.u. and 1.29e+08 a.u.
A375,408.52 h,1.76e+08 a.u. and 1.82e+08 a.u. and 1.54e+08 a.u. and 1.63e+08 a.u. and 1.74e+08 a.u.
KP-4,270 h,4.66e+07 a.u. and 6.63e+07 a.u. and 9.51e+07 a.u. and 2.72e+07 a.u. and 6.59e+07 a.u. and 9.28e+07 a.u.
NCI-H1437,198 h,8.07e+07 a.u. and 4.13e+07 a.u. and 4.73e+07 a.u. and 5.93e+07 a.u. and 6.6e+07 a.u. and 3.4e+07 a.u.
A375,312.52 h,2e+08 a.u. and 1.75e+08 a.u. and 1.7e+08 a.u. and 1.78e+08 a.u. and 1.76e+08 a.u. and 1.95e+08 a.u.

# Some of these lines once more (block 1):
target,remaining binding
"Mitogen-activated protein kinase 10 (MAPK10, Homo sapiens, UniProt P53779)",100%
"Phosphatidylinositol 4,5-bisphosphate 3-kinase catalytic subunit alpha isoform (PIK3CA, Homo sapiens, UniProt P42336)",91%
"Protein kinase C eta type (PRKCH, Homo sapiens, UniProt P24723)",100%
"Misshapen-like kinase 1 (MINK1, Homo sapiens, UniProt Q8N4C8)",72%
"Myosin-IIIa (MYO3A, Homo sapiens, UniProt Q8NEV4)",85%
"Ribosomal protein S6 kinase alpha-1, N-terminal kinase domain (RPS6KA1, Homo sapiens, UniProt Q15418)",100%
